Published values of several laboratories.
Every numbered part comes from another study and shows a few of its results, in no order.

Sample 1 — method: RNA Bind-n-Seq; form: RNA; matrix: in vitro; concentration: not given; baseline: input RNA pool; reading: higher = stronger binding
Target: RING finger protein unkempt homolog, zinc fingers 1-6, GST-SBP tag (UNK, Homo sapiens, UniProt Q9C0B0, residues 30-357)
Notes: RNA with constant flanks, human-mouse chimeric sites, ends assumed
Residues (chain): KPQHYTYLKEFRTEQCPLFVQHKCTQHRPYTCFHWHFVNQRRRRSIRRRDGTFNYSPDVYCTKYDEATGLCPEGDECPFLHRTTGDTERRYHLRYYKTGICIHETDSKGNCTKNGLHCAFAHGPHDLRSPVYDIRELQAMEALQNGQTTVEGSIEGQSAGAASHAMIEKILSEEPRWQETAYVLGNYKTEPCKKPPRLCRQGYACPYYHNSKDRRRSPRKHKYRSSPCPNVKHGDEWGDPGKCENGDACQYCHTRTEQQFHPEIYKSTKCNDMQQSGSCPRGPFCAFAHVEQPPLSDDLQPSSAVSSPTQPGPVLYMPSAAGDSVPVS
Oligonucleotide | bound/input enrichment
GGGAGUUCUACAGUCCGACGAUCCUGGGCUUCUCUUUUCUUUCUUUCCUUUAGGAAAAGCCUAAAGAUUAGGUUGUAAGAAAAACAGAAGCCAUGUUUCGAAGACCUGUAUUACAGGUAUUUCGUCAGUUUGUAAGACAUGAGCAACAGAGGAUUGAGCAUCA | 0.297 ratio
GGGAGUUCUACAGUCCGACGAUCUGACAAGGGCACUGCAGAGCCAUGCCUUUCUUGGACAUACAGAAAAAGCUGGGCAUCAGCCUGGACCGGCACUUUAUGUUCCUAAGCGCAGAACAGCCCUAUAAGAAGGCUGGUCGAUGCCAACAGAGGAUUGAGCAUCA | 0.0775 ratio
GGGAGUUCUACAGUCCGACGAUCAUGGAGAAGGAUUCUCUGCCCCGCUUUGUGCGCUCUGAAUUUUAUAAGGAGCUAAUCAAGUAGUAAUCUGGUCAGGCUUCCAAAAGUUGCCCUGUGAGUUGAGUUACAUCCUUUGUAGCACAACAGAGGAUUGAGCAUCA | 0.242 ratio
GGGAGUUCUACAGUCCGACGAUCUCCCAAAUCCAGCAGCUCCUUGAAAUAUUGAGACAAACACUCCACACACAGGGAAGGCGAUAACAUUGUAAAUUGGUUUACAUUUUUUCCCCCUGUGGAUUUUUCUAGAGGUCAUAGUGCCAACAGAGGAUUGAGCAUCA | 0.399 ratio
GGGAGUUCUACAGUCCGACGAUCGAUCAUGAACCACCAUCAGAAAUGAAGAUGAGAUUACCCAAGACGAGCAAAACAGCUGCGCUACAGAAAAGUAAACUUAACCUUGCAGAGUUCCUUAAAUGAAGAUCAAGUUAAGAGAGCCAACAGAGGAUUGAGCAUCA | 0.277 ratio
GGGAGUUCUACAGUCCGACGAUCUCUUAACUUAUUCAUUUAACUUAUUUUUAUAGCUAGAUAAAUAUUGUUAGUCUUAGUCAAUAGCUCACAUUUUUUGAGAAGCAUGCCCUCCCUGUCCAUUUGUCUUACAAUAACACUCAGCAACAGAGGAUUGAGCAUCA | 22.4 ratio
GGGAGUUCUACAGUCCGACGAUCGUACUGCAGCAGCAGGGAAAACUGCAGGAAGCUCUGAUGCAUUAUAAGGAGGCUAUUCGAAUCAGUCCUACCUUUGCUGAUGCUUAUUCCAAUAUGGGAAACACUCUAAAGGAGAUGCAGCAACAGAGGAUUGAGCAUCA | 0.169 ratio
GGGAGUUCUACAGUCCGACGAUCAAUUUCCUGUCAUACUUUUUAGACAUUGCCAUAGGUAUUACAGAGCAUUGGGCCUCUUUCUAGGUUUGUGUUAUUUCUCAGCUAUGGAUAUGAUCAAAUGAGAACACUGCUUAACUAAUGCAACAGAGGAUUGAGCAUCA | 1.42 ratio

Sample 2 — cell line: HEK-293T; organism: VSV pseudotyped with SARS-CoV-2 spike; concentration: 10 µM; time: 16 h
Compound | pseudovirus infection
CCCCS(=O)(=O)N[C@@H](Cc1ccc(OCCCCC2CCNCC2)cc1)C(=O)O | 78.2%
CC1(C)C[C@@H]1C(=O)N/C(=C\CCCCSC[C@H](N)C(=O)O)C(=O)O | 86.8%
O=c1n(CCCN2CCN(c3cccc(Cl)c3)CC2)nc2ccccn12 | 67.6%

Sample 3 — effect on: enzyme activity; mode: inhibitor; concentration: 20 µM
Target: Replicase polyprotein 1ab, main protease (rep, Severe acute respiratory syndrome coronavirus 2, UniProt P0DTD1)
SMILES | inhibition [%]
CCCOc1ccc(CSc2nnc[nH]2)cc1 | 32.8
Cc1ccc(-n2sc(=O)n(Cc3ccc(F)cc3)c2=O)cc1 | 2.39
[NH2][Pt]([NH2])([Cl])[Cl] | 97.7
O=C(O)[C@@H](S)[C@@H](S)C(=O)O | -8.73

Sample 4 — method: RNA Bind-n-Seq; form: RNA; matrix: in vitro; concentration: 365 nM; baseline: no-protein control; reading: higher = stronger binding
Target: RNA binding protein fox-1 homolog 2, RRM domain, GST-SBP tag (RBFOX2, Homo sapiens, UniProt O43251-10, residues 100-194)
Notes: natural RNA segment, single round, ends assumed
Residues (chain): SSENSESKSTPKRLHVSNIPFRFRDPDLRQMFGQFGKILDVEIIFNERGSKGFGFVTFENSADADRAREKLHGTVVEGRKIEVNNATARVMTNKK
Oligonucleotide | RBNS enrichment (R)
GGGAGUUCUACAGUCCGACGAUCCCCAGACGAAUCUUUAUAAUUUCUUUCCAAAGAUACCAAAUAAACUUCAGUGUUUUCAUCUAAUUCUCUUAAAGUUGAUAUCUUAAUAUUUUGUGUUGAUCAUUAUUUCCUGGAAUUCUCGGGUGCCAA | 0.902
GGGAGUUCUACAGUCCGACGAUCUGCUGGGCCAACUGGUCACCCUCACACAGCACAGAGGGGGCUAGAGGGAACAGCCUCCUGGGUCUUCCUUCUGGUCAUCUCCUUGGGGCAGCACAGGACCACUUCAUGGCUGGAAUUCUCGGGUGCCAA | 0.306
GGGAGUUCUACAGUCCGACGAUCACCAUAGCAUAACAAAGGCUGCUCUCUGUGCUAGUAGCAGUGCUCAGCAGCAUGCACUGUUGAGCUUUUCUGACGCUGUGUCAGAAUGGCACUAGUUCAGUUUAUAUCCCUGGAAUUCUCGGGUGCCAA | 2.28
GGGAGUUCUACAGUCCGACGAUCGGUUCUCCAGGACCUUAGGUUUGAUGCGGAAUCUGCCGAGUGAUGGCGGCUCCCCAGGGAUGCGCCGAGGGAGAUGGGAAACGGGGCGGAUGGCGCCCAGCCCAGCCCUAUGGAAUUCUCGGGUGCCAA | 2.55
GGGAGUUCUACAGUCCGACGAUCGGUGCCAUUCAAGUCCUAGGGUGGGCUUCCAGCUGCCUUAAUAGAAGUACUCAAGUCUUUUGGGUAGUGAGCUGGAAAGCCUACAGGAAAAGAGGGGUACCUGUUUUCAUUGGAAUUCUCGGGUGCCAA | 0.293
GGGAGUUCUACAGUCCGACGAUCUUUAACGUAGCUCGAAUCUGGUACACGCAUAAAGUUUUACGGUCAAGUCCUUUUCUUUCUUCUUGAGAGACCUAAAGAGAUACUGUAGCUUGUUUUUCUGAUGGCAAAUGUGGAAUUCUCGGGUGCCAA | 0.355
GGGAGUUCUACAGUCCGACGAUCGGUUCUCGUAAUCGCUCGGUGGGAAAUCAUGGCUCUGCCGUCCUGCCUCUCUGUGGCCGUGGGUUCACGUGGCCUCUGCGGUGAGUCUCCAAGUUUCUGCCUAGGCGCCUUGGAAUUCUCGGGUGCCAA | 0.176
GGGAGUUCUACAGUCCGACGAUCACUUGUAGAUUCCUGAAUUUAUUCCAUACAUAAUUAUUUCCUUAAGUUAUUUAAUUAUUAAAGGUGCCACGGUGGGACCUUUGGGAUGACUUAAAAAGGGUUCUUUGUUGUGGAAUUCUCGGGUGCCAA | 0.427

Sample 5 — effect on: enzyme activity; mode: inhibitor; concentration: 20 µM
Target: Replicase polyprotein 1ab, polymerase (rep, Severe acute respiratory syndrome coronavirus 2, UniProt P0DTD1)
Compound | inhibition [%]
CC(C)(O)c1ccn2c(-c3ccc(F)c(-c4ccc(F)cc4C#N)c3)cnc2c1F | -1.7
CC[C@H]1OC(=O)[C@H](C)[C@@H](O[C@H]2C[C@@](C)(OC)[C@@H](O)[C@H](C)O2)[C@H](C)[C@@H](O[C@@H]2O[C@H](C)C[C@H](N(C)C)[C@H]2O)[C@](C)(O)C[C@@H](C)[C@@H]2N[C@@H](COCCOC)O[C@H]([C@H]2C)[C@]1(C)O | 1.03
CC(C)(C)NCC(O)c1ccccc1Cl (centres unmarked) | -2.12
c1ccc2c(Oc3nc(Nc4ccc(N5CCOCC5)cc4)c4ncn(C5CCCCC5)c4n3)cccc2c1 | -2.65
COc1cc(Cc2cnc(N)nc2N)cc(OC)c1OC | 2.31
CN(C)C(=O)Oc1ccc[n+](C)c1 | -3.58
O=C(NCCCN1CCOCC1)c1ccc(Cl)cc1 | 0.93
COc1cc(-c2cc(-c3cccc(O)c3)cnc2N)cc(OC)c1OC | -0.03
CCOC(=S)SSC(=S)OCC | -9.93
Cn1cc(-c2ccc(F)c(C(F)(F)F)c2)nc1C1CCN(c2ncnc3[nH]ncc23)CC1 | -0.42
C[C@H](N)C(=O)O | -1.44
COc1ccc(-n2[nH]c3c4c(ncc3c2=O)CCCCC4)cc1 | 1.01
CN(C(=O)CCCOc1ccc2[nH]c(=O)ccc2c1)C1CCCCC1 | 3.54
O=C(c1ccc(F)cc1)C1CCN(CCn2c(=O)[nH]c3ccccc3c2=O)CC1 | -4.82
CC/C(=C(\c1ccc(O)cc1)c1ccc(OCCN(C)C)cc1)c1ccccc1 | -0.04
COc1cc(-c2ccc(/N=N/c3ccc4c(S(=O)(=O)O)cc(S(=O)(=O)O)c(N)c4c3O)c(OC)c2)ccc1/N=N/c1ccc2c(S(=O)(=O)O)cc(S(=O)(=O)O)c(N)c2c1O | 99.9
COc1ccc(-n2c(SCCCN3C(=O)c4cccc5cccc(c45)C3=O)nnc2-c2ccncc2)cc1 | 0.83
CCCn1c(=O)[nH]c2nc(-c3ccc(S(=O)(=O)N4CCN(c5ccc(Cl)cc5)CC4)cc3)[nH]c2c1=O | -3.84
CC(C)c1c(NC(=O)Nc2ccc(Cl)cc2)c(=O)n(-c2ccccc2)n1C | -2.43
C[N+]1([O-])[C@@H]2CC[C@H]1C[C@@H](OC(=O)C(CO)c1ccccc1)C2 (some centres unmarked) | -2.6
Clc1cc(Cl)c(OCC#CI)cc1Cl | 1.32
N[C@@H](CC(=O)N1CCn2c(nnc2C(F)(F)F)C1)Cc1[nH]nc2c(F)c(F)ccc12 | 44.6
CO[C@@]1(NC(=O)C2SC(=C(C(N)=O)C(=O)O)S2)C(=O)N2C(C(=O)O)=C(CSc3nnnn3C)CS[C@@H]21 (some centres unmarked) | 1.22
O=C(O)C1=CCCNC1 | -4.4
CN(C)Cc1cccc(N/C(=C2\C(=O)Nc3cc(C(N)=O)ccc32)c2ccccc2)c1 | 2

Sample 6 — method: RNAcompete; form: RNA; matrix: in vitro; concentration: 20 nM; notes: 7-mer, probes averaged, single round; baseline: mean of 7-mers; reading: higher = stronger binding
Target: PABPC1L2, full length, GST fusion (mouse, UniProt A0ABA7IW68)
Target sequence (chain): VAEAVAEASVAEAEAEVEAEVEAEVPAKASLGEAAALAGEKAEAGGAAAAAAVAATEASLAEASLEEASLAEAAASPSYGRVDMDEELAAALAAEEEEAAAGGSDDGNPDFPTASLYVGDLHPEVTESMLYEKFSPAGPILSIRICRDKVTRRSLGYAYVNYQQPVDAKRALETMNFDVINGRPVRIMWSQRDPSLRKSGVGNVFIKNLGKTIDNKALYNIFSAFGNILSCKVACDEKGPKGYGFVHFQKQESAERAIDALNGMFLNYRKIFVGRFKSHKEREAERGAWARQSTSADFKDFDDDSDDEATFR
Oligonucleotide | 7-mer Z-score
UCGUGGC | -0.226
UUGGAGC | -0.135
CGGACGC | -0.0627
UAUCAGC | -0.244
GGUUGAG | -0.0573
CAGCCCA | -0.242
UGGACCC | 0.0116
GGAUUAG | -0.0301

For quick reference, copied from above (sample 3):
SMILES | inhibition [%]
CCCOc1ccc(CSc2nnc[nH]2)cc1 | 32.8
[NH2][Pt]([NH2])([Cl])[Cl] | 97.7
O=C(O)[C@@H](S)[C@@H](S)C(=O)O | -8.73
Cc1ccc(-n2sc(=O)n(Cc3ccc(F)cc3)c2=O)cc1 | 2.39
